Results of several laboratories.
Parts stem from different laboratories: compare values within a part only. Changes are numbered by the printed parent chain.

Set 1
Target: Histone acetyltransferase KAT6A, winged helix 1, GST fusion (KAT6A, Homo sapiens, UniProt Q92794, residues 1-85)
Technique: protein binding microarray
Form: double-stranded DNA, one strand shown
Matrix: in vitro
Concentration: not given
Setting: 8-mer, flanks averaged, mean of 2 arrays, mostly near background
Reference: not given
Reading: higher = stronger binding
Quantity: E-score
Residues (chain): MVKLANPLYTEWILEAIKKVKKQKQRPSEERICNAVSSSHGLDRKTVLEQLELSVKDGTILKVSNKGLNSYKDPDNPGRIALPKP
GGGTCTAC: 0.0223
AGTTTCCA: -0.183
CTCTTGGA: -0.116
AAACCAAT: -0.143
ACACAGAT: -0.197
ATGACAAC: -0.146
AATATGTA: -0.133
ATAGGGAA: -0.199
CATAGCCA: -0.18
CGCTGTAA: 0.189
CAATCCAG: -0.187
CATTTAGC: -0.142
CCCAGGAA: -0.239
CCACGGAA: 0.316
AGGGCCAT: -0.0778
CTTAGATC: -0.293
GGCAGAGA: -0.0576
CATTAATC: -0.141
AATATAGG: 0.00626
CGGCTCTC: 0.254
AGAGGGCC: 0.0643
CTAAATTC: -0.131
CCTTCAAG: -0.0677
ATGCACCC: 0.0347
ATAGGTAC: 0.0307

Set 2
Target: RING finger protein unkempt homolog, zinc fingers 1-6, GST-SBP tag (UNK, Homo sapiens, UniProt Q9C0B0, residues 30-357)
Technique: RNA Bind-n-Seq
Form: RNA
Matrix: in vitro
Concentration: not given
Setting: RNA with constant flanks, human-mouse chimeric sites, ends assumed
Reference: input RNA pool
Reading: higher = stronger binding
Quantity: bound/input enrichment
Constant ends, left off below: GGGAGUUCUACAGUCCGACGAUC … CAACAGAGGAUUGAGCAUCA
Target sequence (chain): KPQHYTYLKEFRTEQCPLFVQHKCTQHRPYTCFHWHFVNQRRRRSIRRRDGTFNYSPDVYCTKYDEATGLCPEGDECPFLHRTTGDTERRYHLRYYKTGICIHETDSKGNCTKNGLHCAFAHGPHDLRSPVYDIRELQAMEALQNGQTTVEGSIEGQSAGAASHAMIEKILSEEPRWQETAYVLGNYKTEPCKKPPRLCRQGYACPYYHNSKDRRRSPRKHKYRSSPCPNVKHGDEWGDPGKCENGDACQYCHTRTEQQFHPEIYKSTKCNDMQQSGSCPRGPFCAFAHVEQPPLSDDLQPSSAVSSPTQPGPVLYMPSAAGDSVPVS
GGAAGUACAAUGAUGGAGAUUGAUGGUGAUAAAGGCAAGCAGGGCGGGCCCACCUACUACAUAGACACCAAUGCCCUGCGUGUUCCGAGGGAGAACAUGGAGGCCAUCUCACCACUCAAG: 0.218 ratio
ACUCAGAGAUUAUAUUCAAUUGAAGUGGGGAGUAAAGGUGUGGCCACCACACCUAACUUGAUGGAUAUAUAUUUUUUUUAAUAUGAAUCUUCCUGUUCGUCCAGGGAAGAAAGAUUUGUU: 0.694 ratio
ACCUCCCAGGCCUGGGACACCCCACCCCCGCUUUUUGAAAGUGUGUUGGCGUUUCUUUUCCUUCCCCAUACAAAGUGAUUACAGUUUCCCCCGCAAGGGUCUAUCGAAGGGCUUGACGGA: 0.494 ratio
AUCAAGUACUUUGGGGACAUCAUUAGUGUGGGACAGAGACUGUUGCAAGGAGCUCGGAUCUUAGGGAUUCCAGUUAUCAUAACGGAACAAUACCCCAAAGGUCUUGGCAGCACCGUUCAA: 0.151 ratio
UAAAUUAGGGCUGCCGUUUUCUGUUUCUCCCUGGGCUGCAGACAGCUAGAAGAUUUUAUCUAGUUUGUACAAGGCUGCUGGUGUUCCCUCUUUUUUUCCACGAGGGUGUUUUUGGCUGCA: 0.679 ratio
CAGCUGCAGACAGAAAAGGAUGAAAAGGAGCUGUAUAAGGUACAUUUGAAGAAUACAGAAAUAGAAAAUACGAAGCUUGUGUCAGAGGUCCAGACUUUAAAGAAUUUAGAUGGAAACAAA: 3.96 ratio
UCUUAACUUAUUCAUUUCUUAUUUUUAUAUAGCUAGAUAAAUAUUGUUAGUCUUAGACAAUAGCUCACAUUUUUUGAGAAGCAUGCCCUCCCUGUCCAUUUGUCUUAUAACAUGACCCAG: 104 ratio
AUGGAACAUUUCGAUGCGUCACUCAGUACCUAUUUCAAGGCAUUGCUGGGCCCCCGAGAUACAAGAGUAAAAGGAUGGUUCCUCCUGGACAAUUACAUCCCUACGUUUGUCUGUUCUGUU: 0.0923 ratio
CUGGCACUCUAUCAGAUAUAUUAAUUUUUUAAUGUAGAUGUAAUUUUAAAAAUGAAUGGCUACUUUACGUGAUAGAUUAGGGUUUUACUAUAUAUGUGUACAUAUGUAUAUAUAUAUAUA: 4.74 ratio
CGCCUGGAUGAGGCGGGUGUCACAGAUGAAGUGCUAGAUUCUGCCAUGCAAGCCUUCCUUCUGGAGGUCAUUGUUAAACAUGGGGAGCCAGCCCCUUAUUUAUGUAACAAAGAUCCGUUU: 0.0895 ratio
CACACACUCUUCUGCGGGACCCUCAUCUUGCAGGCCCGGGCCUAUGUGGGACCGCACGUGCUAGCAGUGGUGACCCGCACAGGGUUCUGCACGGCAAAAGGGGGCCUGGUGAGCUCCAUC: 0.0953 ratio

Set 3
Target: Ras GTPase-activating protein-binding protein 1, full length (G3BP1, Homo sapiens, UniProt Q13283)
Sequence of UniProt Q13283 (whole entry, looked up): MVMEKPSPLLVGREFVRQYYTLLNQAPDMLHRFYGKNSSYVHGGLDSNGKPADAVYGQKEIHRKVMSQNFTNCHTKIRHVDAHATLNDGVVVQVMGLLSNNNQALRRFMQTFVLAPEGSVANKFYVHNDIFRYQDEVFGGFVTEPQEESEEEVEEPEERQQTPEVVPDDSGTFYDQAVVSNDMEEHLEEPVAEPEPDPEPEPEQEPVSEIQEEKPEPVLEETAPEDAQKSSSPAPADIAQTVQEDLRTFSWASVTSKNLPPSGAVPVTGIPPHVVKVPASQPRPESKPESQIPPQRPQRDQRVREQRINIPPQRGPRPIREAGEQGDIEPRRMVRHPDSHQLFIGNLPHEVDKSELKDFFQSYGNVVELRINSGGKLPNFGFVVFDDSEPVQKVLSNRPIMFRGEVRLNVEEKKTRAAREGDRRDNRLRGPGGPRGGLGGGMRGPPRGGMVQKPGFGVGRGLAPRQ
Technique: RNA Bind-n-Seq
Form: RNA
Matrix: in vitro
Concentration: 200 nM
Setting: whole 134-nt RNA, ends assumed
Together with: 150 mM LiCl
Reference: input library
Reading: higher = stronger binding
Quantity: log2 enrichment
Each molecule: 7-deaza-guanosine replaces G
Constant ends, left off below: GGGAGUUCUACAGUCCGACGAUC … UGGAAUUCUCGGGUGUCAAGG
GAACUUUAGAGGAGGAUCUGAUGGAUAUGGCAGUGGACGUGGAUUUGGGGAUGGCUAUAAUGGGUAUGGAGGAGGACCUGGAGGUGGCAA: 0.118
CACAGACAACACGCACCCACACAGACACAGAGGGAAGGGGUUCGGAUGGGGACAGGGUGCACAGCAGGGCGGGGUAGGACCCCAGCCCCU: -0.857
CACAGACAACACGCACCCACACAGACACAGAAAGAAGGGGUUGGGAUGGGGACAGGGUGCACAGCAGGGCGGGGUAGGACCCCAGCCCCU: 0.2
ACCAUGCAGGUGGGCAUCUUUGGGAAGUGGGGCAAGGGGGGGAUAGGGAGGGGGGUAACACUUUGGGAACAGGUGGUUCCAGGUCGUUUC: 0.0646
UCAUUUUUUUCCCUGCCGGAAUUUUAGCAUUGAUAUGAACCAUGGACAAGUAUAUUCUGCUGCCACAAAGACUGUAAAGUGCUUCAUUUC: 1.41
ACGAUGCAGGUGGGCAUCUUUGGGAAGUGGGGCAAGGGGGGGAUAGGGAGGGGGGUAACACUUUGGGAACAGGUGGUCCCAGGUCGUUUC: 0.478
UGGCCCUGGUGGCAUGCGGGGAGGAAGAGGUGGCCUCAUGGAUCGUGGUGGUGCCGGUGGAAUGUUCAGAGGUGGCCGUGGUGGAGACAG: 0.176
GAUCUCCGGGCUCAGUUGCAGAUUCUGGCCAACAUGGACAGCCAGCUAAAAGAGCUACAGAGUCAGCAUACCCAUUGUGCCCAGGACCUG: -0.635
UCAAGUCCUGUGCUACACAUCGUAUGUACCGAAUCGGUUUGGUGGAAAAAAAGGAAAGUAUUAUGUUACGCCGUUCGGAUCUGCACUUCC: -0.122
GUCCUGUGCUACACAUCGUAUGUACCGAAUCGGGGAAAAAGGGGAAAAAGGGGUGGGGAAAGUAUUAUGUUACGCCGUUCGGAUCUGCAC: -0.821
CAAGUCCUGUGCUACACAUCGUAUGUACCGAAUCGGAAAAGGGGAAAAGGAAAAGGAAAGUAUUAUGUUACGCCGUUCGGAUCUGCACUU: -1.04

Set 4
Target: CCND2, cyclin fold, Cln2 fusion (human)
Technique: yeast growth competition, sequencing
Matrix: yeast
Setting: weak parent motif
Reference: not given
Reading: higher = stronger binding
Quantity: normalised enrichment score
Parent: SAMHD1 docking peptide (human); ASKSRVQLFKDDP; partner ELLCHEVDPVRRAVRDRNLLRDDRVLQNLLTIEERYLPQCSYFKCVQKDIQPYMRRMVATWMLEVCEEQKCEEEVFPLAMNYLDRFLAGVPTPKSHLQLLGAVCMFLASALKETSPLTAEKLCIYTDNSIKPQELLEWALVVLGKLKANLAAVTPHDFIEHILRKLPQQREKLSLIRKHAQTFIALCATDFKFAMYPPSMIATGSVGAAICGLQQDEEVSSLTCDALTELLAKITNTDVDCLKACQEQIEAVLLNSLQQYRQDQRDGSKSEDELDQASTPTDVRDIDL
ASKSRVQLFKSDP [D11S]: 0.405
ASMSRVQLFKDDP [K3M]: 0.321
ASKSRVQTFKDDP [L8T]: 0.0558
ASASRVQLFKDDP [K3A]: 0.526
ALKSRVQLFKDDP [S2L]: 0.0552
ASKSTVQLFKDDP [R5T]: 0.115
ASKSRVELFKDDP [Q7E]: 0.0198
ASKNRVQLFKDDP [S4N]: 0.0576
ASKSRVQLFKTDP [D11T]: 0.795
ASKSRWQLFKDDP [V6W]: -0.257
ASKSRVFLFKDDP [Q7F]: 0.186
ASKSRSQLFKDDP [V6S]: -0.311
AFKSRVQLFKDDP [S2F]: 0.193
ASKSRVQLFYDDP [K10Y]: -0.0904
ASKSRVQLFFDDP [K10F]: -0.243
ASKSRVLLFKDDP [Q7L]: 0.177
AQKSRVQLFKDDP [S2Q]: 0.211
ASKSRVQLFQDDP [K10Q]: -0.046
ASKSRVTLFKDDP [Q7T]: 0.0497
ASKSRVQLMKDDP [F9M]: 0.367
ASKSRVQLFKIDP [D11I]: 0.0669
ASKSPVQLFKDDP [R5P]: 0.0649
ASKSRVQLKKDDP [F9K]: -0.125
ASKSVVQLFKDDP [R5V]: 0.0185
ASKSRFQLFKDDP [V6F]: -0.0911

Other studies, line by line
PhoQ, residues 284 288 289 292 302 303 SLKLQV — fold induction (PhoP, residues 12 14 15 18 19 SMASL (Escherichia coli, UniProt P23836); Sort-seq, item: YFP reporter; E. coli; PhoQ-PhoP variant library, together with: 10 µM Mg2+; reference: high Mg2+ state, higher = stronger signaling): 8.9
